Experimental data gathered from unrelated publications.
Numbered parts are unrelated; each lists some results of a single study. Substitutions count along the parent as printed.

Series 1
Molecule: NOP14 (Homo sapiens, UniProt P78316)
Method: cross-linking MS
Sample: cell fractions
Together with: DSSO
partner | cross-linked residues
RCL1 (Homo sapiens, UniProt Q9Y2P8) | K72 to K57
BYSL (Homo sapiens, UniProt Q13895) | K238 to K242
NOC4L (Homo sapiens, UniProt Q9BVI4) | K535 to K342

Series 2
Target: HLA class I histocompatibility antigen, A alpha chain, allele A*25:01 (Homo sapiens, UniProt P04439)
Effect on: peptide-MHC binding
Form: peptide
Tested at: concentration not given
Molecule | binding
WLGWGHAWV | inactive
EVIRATYPS | inactive
LMRRFRFTV | inactive

Series 3
Target: RNA binding protein fox-1 homolog 2, RRM domain, GST-SBP tag (RBFOX2, Homo sapiens, UniProt O43251-10, residues 100-194)
Method: RNA Bind-n-Seq
Form: RNA
Sample: in vitro
Tested at: 365 nM
Setting: natural RNA segment, single round, ends assumed
Baseline: no-protein control
Reading: higher = stronger binding
Shared flanks, not repeated: GGGAGUUCUACAGUCCGACGAUC … UGGAAUUCUCGGGUGCCAA
Residues (chain): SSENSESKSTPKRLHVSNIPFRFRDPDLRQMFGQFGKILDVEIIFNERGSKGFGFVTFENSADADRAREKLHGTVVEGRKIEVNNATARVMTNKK
Sequence | RBNS enrichment (R)
CUUAUAUAUAUAAUGGUCUAUUUGAAGAGCUCACUUCAACCUAACAGCUAGAUGUCUUUACAAACCUUAAACCAAAGGAGUAAAAAAAACAAUGGUAAGCACUGAAGUAU | 0.478
CCAUUUGUGAUCAGCAUUGUGACUUGGAGAUAAUAAAAUUUAGACUAUAAACUUGGCUCCCUUGCCAGUGUUUUGCAUGAGUCUUGAUUUGGGAGGGAGGGAAGAGGACU | 32.9
CUGUCAAAUCUGUCAUUGCAUAUGCCAUCGUUUUCUAGCAAAAUCCCAUGAUUGGCUAUAAACGUUUUGUAAGAAGUCACUCUCCUUGAAAAUACUGAACAUAGCUGUAU | 0.237
CUGUCUGUCUAUGUAUCUGUCUAUCUAUCUAUAUAUAUAUUCAGCUUCUUUACUGCUACCUACACAUUUUUCUCCAAAUUUUAUUAAUUUCAUAGUGUUUUGAUUUGGGU | 0.824
AGAACGAGUAAUUCUCACCCCAAGCAACAUCUAAUAGGGACUGAGUGACCCCAGCCCAGCCUAGUGUCACUUUAGGCCUGACGUUUGAGCAACCCUCGGCUCUUGCCAAG | 0.276
UUGAGUACACUAUUGCUGUCCAUUGCUGCUGUGAAGCCCUAGCUGAAUAUAGAUGUACAAAUCAGUUUGAGCUCUCCUUACAUACUUUGUGUCAGUAUGCAGGACUGCUA | 0.381
UCUCCUACUCAACCAGGAAGUCAUGGUUUCUGCAGUCCAGAGCCAUGGCAACUGAGAUUCUAAGCUCUCUUUGUCUCAUCCAGGCAACUUUUCUGUCUCCCAACCAAGGA | 0.259
CAUAAUUGAUAUCUUAUAGCUUUCAAGUAAAGUGUUUUCUAUAACUCAGAUAAUUAAUUUGAAGCAAGAAAGAAGGUAAAAAUGAGGUUUCCCAGCCAUGUUGCUGCUUU | 0.327

Series 4
Target: CCND3, cyclin fold, Cln2 fusion (human)
Method: yeast growth competition, sequencing
Sample: yeast
Setting: weak parent motif
Baseline: not given
Reading: higher = stronger binding
Starting sequence: viral docking peptide; KGVKRKLFAEDSS; partner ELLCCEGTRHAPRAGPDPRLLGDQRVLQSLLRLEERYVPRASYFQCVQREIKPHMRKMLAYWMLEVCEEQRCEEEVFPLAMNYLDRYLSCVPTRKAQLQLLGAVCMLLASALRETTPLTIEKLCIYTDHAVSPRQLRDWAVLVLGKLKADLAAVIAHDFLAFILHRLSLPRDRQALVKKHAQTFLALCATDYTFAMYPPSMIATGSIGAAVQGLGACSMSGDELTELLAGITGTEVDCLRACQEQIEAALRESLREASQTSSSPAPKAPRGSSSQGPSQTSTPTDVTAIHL
Change | normalised enrichment score
KGVKAKLFAEDSS [R5A] | 0.135
KGVKMKLFAEDSS [R5M] | -0.0795
KGTKRKLFAEDSS [V3T] | 0.475

A few entries again (series 1):
partner | cross-linked residues
RCL1 (Homo sapiens, UniProt Q9Y2P8) | K72 to K57
BYSL (Homo sapiens, UniProt Q13895) | K238 to K242
